Experimental data of several laboratories.
Every numbered part comes from another study and shows a few of its results, in no order. Substitutions count along the parent as printed.

Series 1
Target: Sal-like protein 4, full length isoform B (SALL4, Homo sapiens, UniProt Q9UJQ4-2, residues 1-616)
Method: universal PBM
Molecule type: double-stranded DNA, one strand shown
Medium: in vitro
Tested at: not given
Setting: 8-mer, flanks averaged, mean of replicates
Direction: higher = stronger binding
`GGCCCATA` has an E-score of -0.0214.
With `GCTAGGCA` the E-score was -0.16.
`AATTGTCA` has an E-score of 0.24.
For `ATCCCACA`, the E-score was 0.00367.
With `AACCTCCA` the E-score was -0.0153.
`AGTTTGAG` has an E-score of -0.046.
For `AAGAATAG`, the E-score was 0.126.
`GACGTATC` has an E-score of 0.0115.
For `ATCCATCC`, the E-score was 0.0986.
`CGCTAAAC` has an E-score of -0.0126.
For `GGGTAGAC`, the E-score was -0.241.
The E-score of `TGCTGCAA` is reported as 0.103.

Series 2
Target: Histone acetyltransferase KAT6A, both winged helices, GST fusion (KAT6A, Homo sapiens, UniProt Q92794, residues 1-181)
Method: protein binding microarray
Molecule type: double-stranded DNA, one strand shown
Medium: in vitro
Tested at: not given
Setting: 8-mer, flanks averaged, mean of 2 arrays, mostly near background
Relative to: not given
Direction: higher = stronger binding
Construct (chain): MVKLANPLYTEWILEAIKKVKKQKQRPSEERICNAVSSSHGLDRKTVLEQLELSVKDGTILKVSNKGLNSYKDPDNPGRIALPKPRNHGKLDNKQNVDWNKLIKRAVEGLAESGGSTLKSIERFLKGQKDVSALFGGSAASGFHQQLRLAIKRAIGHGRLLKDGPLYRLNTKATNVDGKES
With `GAATCTAA` the E-score was 0.0331.
`AAGTATTC` has an E-score of -0.201.
The E-score of `CGCTAGCG` is reported as 0.256.
`AAGCGGAG` gave an E-score of -0.0341.
The E-score of `AAGAATAC` is reported as 0.0163.
For `CCCTGGCG`, the E-score was 0.093.
`ACTTCCTG` gave an E-score of -0.166.
With `AGGCGTGA` the E-score was -0.0389.
For `CTGGGGCA`, the E-score was -0.232.
For `AGGAACGA`, the E-score was 0.0585.
For `ACGAGCCG`, the E-score was 0.151.
For `CCAAGCAA`, the E-score was -0.152.

Series 3
Target: CCNA2, cyclin fold, Cln2 fusion (human)
Method: yeast growth competition, sequencing
Medium: yeast
Setting: weak parent motif
Relative to: not given
Direction: higher = stronger binding
Parent: SLBP docking peptide (human); ARYKRKLLINDFG
`ANYKRKLLINDFG [R2N]` — result for “normalised enrichment score”: 1.4.
`ARYKRKLLIVDFG [N10V]` — result for “normalised enrichment score”: 0.991.
`ARYQRKLLINDFG [K4Q]`: “normalised enrichment score” 1.16.
For `ARYKRPLLINDFG [K6P]`, “normalised enrichment score” read 0.407.
For `ARYKRKLLINDLG [F12L]`, “normalised enrichment score” read 1.96.
`ARYKRKLLINDHG [F12H]`: “normalised enrichment score” 0.602.
`ARYLRKLLINDFG [K4L]`: “normalised enrichment score” 1.5.
`AEYKRKLLINDFG [R2E]`: “normalised enrichment score” 1.64.
`ARYKRKLLCNDFG [I9C]` — result for “normalised enrichment score”: 1.51.
`ARYKRKLLINDIG [F12I]` — result for “normalised enrichment score”: 0.694.
Under “normalised enrichment score”, `ARYDRKLLINDFG [K4D]` is recorded as 0.446.
For `ARYKRKLLINDWG [F12W]`, “normalised enrichment score” read 0.82.

Single results of other studies
The fold induction of `PhoQ, residues 284 288 289 292 302 303 GASLAW` is reported as 4.74 (PhoP, residues 12 14 15 18 19 GHCSL (Escherichia coli, UniProt P23836); Sort-seq, refers to: YFP reporter; E. coli; PhoQ-PhoP variant library, added: 10 µM Mg2+; relative to: high Mg2+ state, higher = stronger signaling).
